Experimental data from different studies.
Numbered parts are unrelated; each lists some results of a single study. Changes are numbered by the printed parent chain.

Series 1
Target: CCND1, cyclin fold, Cln2 fusion (human)
Method: yeast growth competition, sequencing
Sample: yeast
Notes: weak parent motif
Relative to: not given
Direction: higher = stronger binding
Starting sequence: DBF4 docking peptide (human); DDIVSKLVFDFVE; partner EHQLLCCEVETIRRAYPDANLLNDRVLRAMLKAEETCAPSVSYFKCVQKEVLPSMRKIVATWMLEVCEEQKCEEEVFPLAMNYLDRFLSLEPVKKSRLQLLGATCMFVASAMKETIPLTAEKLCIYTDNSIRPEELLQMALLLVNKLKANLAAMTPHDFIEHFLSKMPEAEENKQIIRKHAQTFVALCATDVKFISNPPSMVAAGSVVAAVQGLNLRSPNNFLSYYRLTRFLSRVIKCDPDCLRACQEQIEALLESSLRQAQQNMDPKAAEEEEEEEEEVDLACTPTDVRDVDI
Substitution	normalised enrichment score
DDIVSKLVFDAVE [F11A]	0.73
DDIVSKLVFDFAE [V12A]	0.584
ADIVSKLVFDFVE [D1A]	0.639
DDIVSKLAFDFVE [V8A]	0.911
DDIVSKLVADFVE [F9A]	0.73
DDIVSKLVFAFVE [D10A]	0.675
DDAVSKLVFDFVE [I3A]	0.922

Series 2
Target: ABI1, truncated, D143A, DHFR fusion (Arabidopsis thaliana)
Method: DHFR PCA, deep sequencing
Sample: yeast
Notes: methotrexate growth selection, single substitutions
With: (+)-ABA 0.032 µM
Relative to: wild-type fitted maximum
Direction: higher = stronger binding
Starting sequence: PYL1, truncated, DHFR fusion (Arabidopsis thaliana); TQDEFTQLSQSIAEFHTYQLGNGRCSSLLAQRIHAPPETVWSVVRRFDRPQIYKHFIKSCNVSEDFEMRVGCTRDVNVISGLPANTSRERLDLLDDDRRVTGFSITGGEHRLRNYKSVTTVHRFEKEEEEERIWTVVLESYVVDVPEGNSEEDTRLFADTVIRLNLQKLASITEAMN
Substitution	relative binding score [%]
V136C	1.4
V100N	0.141
R111M	18
T86W	72.6
L94H	9.03
D92P	5.33
E64S	32.4
E125S	46.1
S26Y	-2.09
F66R	4.06
L138H	1.87
T6N	37.6
D159Y	-1.43
H34E	31
R69H	13.3
L112Q	-0.578
H34F	17.9

Series 3
Target: Protein C-ets-1 (ETS1, Homo sapiens, UniProt P14921, residues 1-441, K379A, full length assumed)
Method: protein-binding microarray
Form: double-stranded DNA, one strand shown
Sample: in vitro
Concentration: not given
Notes: k-mer, scored over probes, only values ≥0.25
Direction: higher = stronger binding
Residues (chain): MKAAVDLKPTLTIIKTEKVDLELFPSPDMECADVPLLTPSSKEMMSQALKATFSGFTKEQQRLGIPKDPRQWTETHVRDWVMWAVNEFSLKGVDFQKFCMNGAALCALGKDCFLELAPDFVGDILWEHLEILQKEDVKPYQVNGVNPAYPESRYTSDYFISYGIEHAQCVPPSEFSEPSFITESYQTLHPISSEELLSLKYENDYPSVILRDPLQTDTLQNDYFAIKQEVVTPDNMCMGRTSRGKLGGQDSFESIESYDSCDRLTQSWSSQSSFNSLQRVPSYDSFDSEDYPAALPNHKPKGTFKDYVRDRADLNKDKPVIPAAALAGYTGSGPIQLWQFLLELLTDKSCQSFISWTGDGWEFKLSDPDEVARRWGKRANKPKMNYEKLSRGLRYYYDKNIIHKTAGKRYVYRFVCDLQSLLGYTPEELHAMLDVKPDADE
Strand	E-score
GACAGGAA	0.307
CGACATAA	0.25
AGTTAACA	0.258
TATTGCAA	0.254
GGTAACAA	0.303
CTCATATA	0.275
AAACCGGT	0.381
AACGGAAA	0.253
GCCGGTTA	0.32
AACCGCCG	0.292
ACTCGAAC	0.301
GACCGGTC	0.366
GGTAATAA	0.267
CCGGGAGC	0.256
ACCCGGTA	0.381
GTACCGAC	0.355
ATATACAC	0.257
ACCGTTAA	0.261
CCGGCCCC	0.263
ACTTTCTA	0.26

Series 4
Target: Interferon regulatory factor 7, full length, phosphomimetic (IRF7, Homo sapiens, UniProt Q92985, residues 1-503, S471D/S472D/S475D/S476D/S477D/S483D/S484D/S487D)
Method: protein-binding microarray
Form: double-stranded DNA, one strand shown
Sample: in vitro
Concentration: 2200 nM top
Notes: 60-bp whole probe
With: salmon DNA 0.4 mg/ml
Relative to: random background probes
Direction: higher = stronger binding
Shared flanks, not repeated: GCCTAGCAC … GTCTTGATTCGCTTGACGCTGCTG
Residues (chain): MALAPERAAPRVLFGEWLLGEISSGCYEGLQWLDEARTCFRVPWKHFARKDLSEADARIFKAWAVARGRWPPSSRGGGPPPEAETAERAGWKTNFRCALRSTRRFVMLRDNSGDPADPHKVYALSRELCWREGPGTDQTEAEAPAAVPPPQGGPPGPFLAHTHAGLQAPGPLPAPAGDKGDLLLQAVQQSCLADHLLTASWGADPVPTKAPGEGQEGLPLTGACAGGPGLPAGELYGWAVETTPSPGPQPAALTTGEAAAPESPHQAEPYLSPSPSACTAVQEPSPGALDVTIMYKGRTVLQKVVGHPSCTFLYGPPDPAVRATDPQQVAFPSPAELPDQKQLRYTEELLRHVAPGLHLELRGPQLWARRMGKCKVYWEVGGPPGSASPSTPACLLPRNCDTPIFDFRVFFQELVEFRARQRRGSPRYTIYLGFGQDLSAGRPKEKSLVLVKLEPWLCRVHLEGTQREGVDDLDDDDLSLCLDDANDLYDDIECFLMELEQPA
Strand	fitted relative affinity [z-score]
TCAATTACCTCATCTTTCACTGTGCTA	1.46
TCAAAAAAAAAAAACTGTACTGTGCTA	-1.76
TCAATGATCCAGTTTTACACTGTGCTA	0.177
TTAGAACTGGGGTTTCCATTAGTGCTA	0.526
TTAGGACTGCTACTGCTTTCGTGCTAG	1.01
GACGGTATCGGTATCGGGACGTGCTAG	0.39
TCCCATTCTGAATTCGAATGGTGCTAG	1.83
TCACTTCTTGAACTCTTACTGTGCTAG	1.82
CTGGGGGCAGTTTCATGGCCGTGCTAG	-0.519
TATATATCCATTATAGATGAGTGCTAG	0.607
TTAGATCCCAGTTTCGATTAGTGCTAG	6.01
GATGAACTGAGTCTCGAGACGTGCTAG	0.103
AAACTAGTGTTTTTCTCCTAGTGCTAG	0.544
CTTTTATTTTTTTTATTTATGTGCTAG	1.64
GACGATTTCGGGACTCGAGACGTGCTA	1.67
TCATATTTTAATCACATACTGTGCTAG	0.914
TTAGATTCCAGTTTCCATTAGTGCTAG	3.37

Series 5
Target: PABPC1L2, full length, GST fusion (mouse, UniProt A0ABA7IW68)
Method: RNAcompete
Form: RNA
Sample: in vitro
Concentration: 20 nM
Notes: 7-mer, probes averaged, single round
Relative to: mean of 7-mers
Direction: higher = stronger binding
Target sequence (chain): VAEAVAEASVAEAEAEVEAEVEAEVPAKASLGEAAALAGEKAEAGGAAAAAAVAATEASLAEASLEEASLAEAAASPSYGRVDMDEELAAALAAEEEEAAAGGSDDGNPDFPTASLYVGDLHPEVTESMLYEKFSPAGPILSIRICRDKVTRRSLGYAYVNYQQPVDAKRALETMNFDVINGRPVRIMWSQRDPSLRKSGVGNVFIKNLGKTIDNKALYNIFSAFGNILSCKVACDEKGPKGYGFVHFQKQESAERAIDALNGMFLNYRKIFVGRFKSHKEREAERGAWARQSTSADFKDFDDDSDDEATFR
Strand	7-mer Z-score
AUUGCGA	-0.021
UUUUGUC	-0.385
GGUCGGU	-0.0772
CUGAAUU	-0.19
UAUUUGA	-0.231
GAUUCUU	-0.318
CAACACA	0.189
GCUUACC	-0.251
CCGUGAU	-0.257
AAGCAGC	0.329
ACGAAUG	-0.0754
AAACCGU	0.416
AACUCUG	0.0442
UAUUCGC	-0.4
GGAUAAU	0.0207
UCAAAAU	1.1
UGCACAG	-0.171
UAACCCA	-0.229

Series 6
Target: BATF, bZIP domain (human)
Method: DHFR protein complementation
Sample: yeast
Notes: single substitutions, most at no-binding floor
Relative to: wild-type JUN-FOS pair
Direction: higher = stronger binding
Starting sequence: JUN, bZIP domain (human); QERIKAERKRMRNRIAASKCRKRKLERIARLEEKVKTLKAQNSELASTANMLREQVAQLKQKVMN; partner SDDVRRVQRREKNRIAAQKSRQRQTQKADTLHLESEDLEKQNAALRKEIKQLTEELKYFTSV
Substitution	binding fitness [natural log]
A40N	-0.0485
V35W	-0.176
E54V	-0.161
R53P	-1.12
E33D	-0.0682
Q55Y	-0.284
Q55T	-0.135
R53W	-0.733
V56E	-1.3
L45D	-1.19
Q41C	-1.51
A46L	0.019
V56A	-0.41
S47D	0.0574

Series 7
Target: Fragile X messenger ribonucleoprotein 1, C-terminal low-complexity region (Fmr1, Mus musculus, UniProt P35922)
Method: RNA Bind-n-Seq
Form: RNA
Sample: in vitro
Concentration: 200 nM
Notes: whole 134-nt RNA, ends assumed
With: 150 mM LiCl
Relative to: input library
Direction: higher = stronger binding
All molecules: 7-deaza-guanosine replaces G
Shared flanks, not repeated: GGGAGUUCUACAGUCCGACGAUC … UGGAAUUCUCGGGUGUCAAGG
Strand	log2 enrichment
UGGCCCUGGUGGCAUGCGGGGAGGAAGAGGUGGCCUCAUGGAUCGUGGUGGUUCCGGUGGAAUGUUCAGAGGUGGCCGUGGUGGAGACAG	0.205
UGUCAGGAUUAUGAAGAAGCUGUGCUCUUGCUGUUAGAAGGAGCUGCCUGGGAAGAAGCUUUGAGGCUGGUAAGAAUCUUGUAAAUCCUC	-1.29
AGUCCUGUGCUACACAUCGUAUGUACCGAAUCGGGCCCCCGGGCCCCCGGGCCCCCGGAAAGUAUUAUGUUACGCCGUUCGGAUCUGCAC	-2.82
UAACUUUAGAGGAGGAUCUGAUGGAUAUGGCAGUGGACGUGGAUUUGGGGAUGGCUAUAAUAGGUAUGGAGGAGGACCUGGAGGUGGCAA	0.04
UAACUUUAGAGGAGGAUCUGAUGGAUAUGACAGUGGACGUGGAUUUGGGGAUGGCUAUAAUGGGUAUGGAGGAGGACCUGGAGGUGGCAA	0.589
GUCCUGUGCUACACAUCGUAUGUACCGAAUCGGGGAAAAAGGGAAAAAGGGGAAAAAGGAAAGUAUUAUGUUACGCCGUUCGGAUCUGCA	0.528
CAAGUCCUGUGCUACACAUCGUAUGUACCGAAUCGGGUGGGAAAAAAAGGGAGGGAAAGUAUUAUGUUACGCCGUUCGGAUCUGCACUUC	-0.148
CACAGACAACACGCACCAACACAGACACAGAGGGAAGGGGUUGGGAUGGGGACAGGGUGCACAGCAGGGCGGGGUAGGACCCCAGCCCCU	0.676
AGUCCUGUGCUACACAUCGUAUGUACCGAAUCGGGGUUUUGGGUUUUGGGGUUUUGGGAAAGUAUUAUGUUACGCCGUUCGGAUCUGCAC	-1.08
AAGUCCUGUGCUACACAUCGUAUGUACCGAAUCGGGAGGGAAAAAAAGGGAAAGGGAAAGUAUUAUGUUACGCCGUUCGGAUCUGCACUU	-0.215
CCUCAAGUCCUGUGCUACACAUCGUAUGUACCGAAUCGGGUGGGGUGGUGGGAAAGUAUUAUGUUACGCCGUUCGGAUCUGCACUUCCAG	-0.271

Other studies, line by line
Molecule	target	assay	system	conditions	scale	measurement	result
PhoQ, residues 284 288 289 292 302 303 QWQEDG	PhoP, residues 12 14 15 18 19 IQFRS (Escherichia coli, UniProt P23836)	Sort-seq, refers to: YFP reporter	E. coli	PhoQ-PhoP variant library, with: 10 µM Mg2+	relative to: high Mg2+ state, higher = stronger signaling	fold induction	13.8

A few entries again (series 2):
Substitution	relative binding score [%]
D92P	5.33
E64S	32.4
E125S	46.1
S26Y	-2.09
F66R	4.06
L138H	1.87
T6N	37.6
D159Y	-1.43
H34E	31
R69H	13.3
L112Q	-0.578
